Measured values from different studies.
Parts stem from different laboratories: compare values within a part only. Positions count from the first letter of the parent shown.

Sample 1 — target: CREBRF, bZIP domain (human); technique: DHFR protein complementation; matrix: yeast; relative to: wild-type JUN-FOS pair; direction: higher = stronger binding
Notes: single substitutions, most at no-binding floor
Starting sequence: JUN, bZIP domain (human); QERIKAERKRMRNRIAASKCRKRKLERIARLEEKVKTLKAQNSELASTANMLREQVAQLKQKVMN; partner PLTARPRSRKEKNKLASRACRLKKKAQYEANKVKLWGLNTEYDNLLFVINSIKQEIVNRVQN
For `R30H`, the binding fitness was -1.59 natural log.
`A40W` has a binding fitness of -1.47 natural log.
`L31P` has a binding fitness of -1.53 natural log.
The binding fitness of `K36A` is reported as -1.48 natural log.
With `L59V` the binding fitness was -1.46 natural log.
With `N42A` the binding fitness was -1.42 natural log.
For `A29W`, the binding fitness was -1.56 natural log.
For `L31I`, the binding fitness was -1.46 natural log.
`V56T` gave a binding fitness of -1.35 natural log.
The binding fitness of `Q41F` is reported as -1.52 natural log.
With `Q41R` the binding fitness was -1.47 natural log.
`I28D` gave a binding fitness of -1.55 natural log.
`V35S` gave a binding fitness of -1.54 natural log.
`T48Y` gave a binding fitness of -1.54 natural log.
`E44D` gave a binding fitness of -1.5 natural log.
`L52V` gave a binding fitness of -1.32 natural log.
`A46D` has a binding fitness of -1.57 natural log.

Sample 2 — technique: RNA Bind-n-Seq; form: RNA; matrix: in vitro; concentration: not given; relative to: input RNA pool; direction: higher = stronger binding
Target: RING finger protein unkempt homolog, zinc fingers 1-6, GST-SBP tag (UNK, Homo sapiens, UniProt Q9C0B0, residues 30-357)
UniProt Q9C0B0, sequence (30-357, looked up): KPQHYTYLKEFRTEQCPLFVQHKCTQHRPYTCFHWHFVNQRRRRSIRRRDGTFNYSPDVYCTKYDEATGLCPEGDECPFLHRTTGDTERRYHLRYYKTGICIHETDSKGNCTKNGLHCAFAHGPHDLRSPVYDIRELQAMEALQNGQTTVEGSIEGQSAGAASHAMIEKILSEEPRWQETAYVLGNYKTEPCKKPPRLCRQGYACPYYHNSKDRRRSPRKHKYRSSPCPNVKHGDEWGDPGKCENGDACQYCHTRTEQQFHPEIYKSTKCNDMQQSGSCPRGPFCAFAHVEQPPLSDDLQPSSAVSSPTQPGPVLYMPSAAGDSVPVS
Notes: RNA with constant flanks, human-mouse chimeric sites, ends assumed
Constant ends, left off below: GGGAGUUCUACAGUCCGACGAUC … CAACAGAGGAUUGAGCAUCA
For `GCUCCUCCCCGCUCUGCCCCUGCCUGCCACUGGGCUGGGACCAGAAUCCAGCUUUCUUUUAAAACUCUCAGUGUAACUGUAUCCCGUGACAUUUCAUUUUUUUUAAAUAGUGUAUUUUUU`, the bound/input enrichment was 4.61 ratio.
The bound/input enrichment of `AGAUUCCCCCUCCUGAGACCUCCUCCGAAGUUGGAGUCUCUUACAGAUGCCUCAUCCCCUGUUAGCGUUUUGGUCUGGACCACCCAGCCUUGGACAAUUCCCGCCAAUGAAGCUGUUUGC` is reported as 0.711 ratio.
With `UCAGUCUUUUUGUACAGCUUUGUAAAUUCUUAACAUUUUUAUAUUGCCAUGUUUAUUUUGUUUGGGUAAUUUGGUUCAUUAAGUACAUAGCUAAGGUAAUGAACAUCGUAAUUAUAGAUU` the bound/input enrichment was 2.22 ratio.
For `ACAGUUAUAUUGUUGAGUUUCAUUUUCAUAUAUUCUUGUAGUGUCUGCUUGCCUGUGUCUUUUAGUAAAAUAAAAUAAGCCUUUGAAAAUAUUUUAGAUUUAACAUUAACAUUUUCUAAA`, the bound/input enrichment was 22.3 ratio.
`AAUGUGGAACUAAGUUCCUUGGCCCGGCUUCCCAGCUUGAAUAAACUCCGGAAGUUGGAACUUAGUGACAAUAUAAUUUCUGGAGGCUUGGAAGUCCUGGCAGAGAAAUGUCCAAAUCUU` has a bound/input enrichment of 0.255 ratio.
`UACUCAACUUUCUUUCCACAUUUUGAAUUCCAAGACAUUAUUCCUCCAGAUGACUUUCUAACGAGUGAUGAAGAGCAAGAUUUGGUUUUAUUUGGAACUAUGAGAGGACAAGUUGUUGGA` gave a bound/input enrichment of 0.212 ratio.
`UCAUUUUUCUCUUUUCUGAUCGUCAGGUAGGAAAAGCCUAAAGAUUAGGUUGUAAGAAAAAUAGAAGCCAUGUUUCGAAGACCUGUGUUACAGGUAUUUCGUCAGUUUGUAAGACAUGAG` gave a bound/input enrichment of 9.98 ratio.
The bound/input enrichment of `AAUUUCCUGUCAUACUUUUUAGACAUUCACAUCAGACUUACAGAGCAUUGGGCCUCUUUCUAGGUUUGUGUUAUUUCUAAGCCUUUUAUAUGAUCAAAUGAGAACACUGCUUAACUAAUG` is reported as 0.489 ratio.
`UUUGUUUUUAUGCUAAGCACACGUGCUGGUGGUCUGGGCAUCAAUCUUGCGACUGCUGAUGUAGUCAUUUUAUAUGACUCAGAUUGGAAUCCGCAAGUUGAUCUUCAGGCUAUGGACCGU` has a bound/input enrichment of 0.116 ratio.
`GGAAGUACAAUGAUGGAAAUAGAUGGCGACAAAGGCAAGCAGGGCGGUCCCACCUACUACAUAGACACCAAUGCCCUCCGCGUGCCCAGGGAGAACAUGGAGGCCAUCUCACCACUCAAG` gave a bound/input enrichment of 0.263 ratio.
`GGCCUGGGACCGUCCUGGCUAGUGCAAAAUAGCGGCAGUGGAGGCUCGAGAGGAAAGUUUGUUAGUGGAGGCAGUGGUAGAGGCCGUAUGUACGCUCCCUUUACUCGAUAGAUGUGUUCU` gave a bound/input enrichment of 0.558 ratio.

Sample 3 — technique: DHFR PCA, deep sequencing; matrix: yeast; together with: (+)-ABA 0.11 µM; relative to: wild-type fitted maximum; direction: higher = stronger binding
Target: ABI1, truncated, D143A, DHFR fusion (Arabidopsis thaliana)
Notes: methotrexate growth selection, single substitutions
Starting sequence: PYL1, truncated, DHFR fusion (Arabidopsis thaliana); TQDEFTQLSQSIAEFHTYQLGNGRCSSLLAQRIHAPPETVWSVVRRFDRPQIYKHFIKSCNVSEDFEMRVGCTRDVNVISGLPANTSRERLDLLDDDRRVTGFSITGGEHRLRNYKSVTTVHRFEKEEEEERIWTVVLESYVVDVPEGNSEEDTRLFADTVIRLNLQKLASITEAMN
`D159P`: “relative binding score” -5.72%.
`R46D`: “relative binding score” -5.3%.
For `C25G`, “relative binding score” read -3.17%.
`L156P`: “relative binding score” -0.895%.
For `W134T`, “relative binding score” read 44.6%.
Under “relative binding score”, `I162F` is recorded as -19.2%.
`R90T`: “relative binding score” 3.55%.
`V43N`: “relative binding score” -5.6%.
`V121G` — result for “relative binding score”: -5.24%.
`D97I`: “relative binding score” 11.2%.
For `D153C`, “relative binding score” read 0.261%.
For `I162G`, “relative binding score” read 5.52%.
For `S59T`, “relative binding score” read 20.4%.
For `G81K`, “relative binding score” read 0.854%.
`S59H`: “relative binding score” 6.78%.
`V40A`: “relative binding score” -0.882%.

Sample 4 — technique: RNAcompete; form: RNA; matrix: in vitro; concentration: 20 nM; notes: 7-mer, probes averaged, single round; relative to: mean of 7-mers; direction: higher = stronger binding
Target: PABPC1L2, full length, GST fusion (mouse, UniProt A0ABA7IW68)
Residues (chain): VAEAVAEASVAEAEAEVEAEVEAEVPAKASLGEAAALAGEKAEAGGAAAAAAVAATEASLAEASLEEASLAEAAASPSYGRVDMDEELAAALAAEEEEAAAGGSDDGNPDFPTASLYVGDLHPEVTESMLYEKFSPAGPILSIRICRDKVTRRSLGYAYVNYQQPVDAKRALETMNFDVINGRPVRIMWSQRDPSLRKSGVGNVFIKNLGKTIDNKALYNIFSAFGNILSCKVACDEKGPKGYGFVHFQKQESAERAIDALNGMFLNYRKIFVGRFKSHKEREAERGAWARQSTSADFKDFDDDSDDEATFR
`AGUCCUG` gave a 7-mer Z-score of -0.315.
The 7-mer Z-score of `CGCUGGC` is reported as -0.367.
The 7-mer Z-score of `UGGUGGG` is reported as -0.106.
With `AGGCGAG` the 7-mer Z-score was 0.321.
`AGGAGCU` gave a 7-mer Z-score of -0.0047.
For `AAACUAA`, the 7-mer Z-score was 1.56.
With `GCAUGCA` the 7-mer Z-score was -0.168.
For `CUAAUCG`, the 7-mer Z-score was -0.248.
The 7-mer Z-score of `AUUUUCA` is reported as -0.391.
For `CUAGACC`, the 7-mer Z-score was -0.021.
For `UAACCGA`, the 7-mer Z-score was 0.0334.
`GCACCAU` has a 7-mer Z-score of -0.0355.
The 7-mer Z-score of `AAGGCGA` is reported as 0.452.
The 7-mer Z-score of `GUCUCGU` is reported as -0.344.
`AACCCCA` gave a 7-mer Z-score of -0.0373.
With `AAUGCCU` the 7-mer Z-score was -0.0718.
The 7-mer Z-score of `UAUUAAA` is reported as 0.599.
The 7-mer Z-score of `UGGGAAC` is reported as 0.166.

Sample 5 — target: CCNA1, cyclin fold, Cln2 fusion (human); technique: yeast growth competition, sequencing; matrix: yeast; notes: weak parent motif; relative to: not given; direction: higher = stronger binding
Starting sequence: ANKRD17 docking peptide (human); PSVRRQLFVTVVK
For `V12A`, “normalised enrichment score” read 0.537.
For `F8L`, “normalised enrichment score” read 0.238.
`V3A` — result for “normalised enrichment score”: 0.676.
Under “normalised enrichment score”, `K13A` is recorded as 0.174.
`F8A` — result for “normalised enrichment score”: 0.355.
`R5K F8L`: “normalised enrichment score” 1.61.
`R5A L7A`: “normalised enrichment score” 0.235.
For `R5A`, “normalised enrichment score” read 0.682.
`V11A`: “normalised enrichment score” 0.727.
`P1A` — result for “normalised enrichment score”: 0.459.

Sample 6 — target: CRIPT, C-terminal peptide; technique: DHFR complementation, deep sequencing; matrix: yeast; relative to: wild type; direction: higher = weaker binding
Notes: single substitutions, model-inferred values
Starting sequence: ERBIN, PDZ domain 1 (human); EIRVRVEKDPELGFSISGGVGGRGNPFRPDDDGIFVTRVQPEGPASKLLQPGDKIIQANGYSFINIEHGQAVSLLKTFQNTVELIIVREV; partner TKNYKQTSV
For `I64C`, “binding free energy change” read 0.0378 kcal/mol.
Under “binding free energy change”, `G18F` is recorded as 1.36 kcal/mol.
For `P29C`, “binding free energy change” read 0.0211 kcal/mol.
Under “binding free energy change”, `Q50A` is recorded as -0.0459 kcal/mol.
`A45C` — result for “binding free energy change”: -0.072 kcal/mol.
For `F14N`, “binding free energy change” read 1.24 kcal/mol.
`K8G` — result for “binding free energy change”: 0.429 kcal/mol.
`F78H` — result for “binding free energy change”: 0.339 kcal/mol.
For `K8T`, “binding free energy change” read 1.27 kcal/mol.
`R38L` — result for “binding free energy change”: 0.0365 kcal/mol.
`T81M` — result for “binding free energy change”: -0.0189 kcal/mol.
Under “binding free energy change”, `D32G` is recorded as 0.28 kcal/mol.
`L49R`: “binding free energy change” 0.84 kcal/mol.
For `L84D`, “binding free energy change” read 1.02 kcal/mol.
`K8Q`: “binding free energy change” 1.04 kcal/mol.
For `P41K`, “binding free energy change” read 0.252 kcal/mol.
`S73K`: “binding free energy change” -0.0389 kcal/mol.
For `G13Y`, “binding free energy change” read 1.05 kcal/mol.
`I16D` — result for “binding free energy change”: 1.36 kcal/mol.
For `E89M`, “binding free energy change” read -0.027 kcal/mol.
`E7R`: “binding free energy change” -0.221 kcal/mol.
`R23Y` — result for “binding free energy change”: -0.595 kcal/mol.
Under “binding free energy change”, `A71L` is recorded as 1.53 kcal/mol.
`Y61R`: “binding free energy change” -0.013 kcal/mol.
Under “binding free energy change”, `G52N` is recorded as 0.74 kcal/mol.

Sample 7 — technique: Sort-seq; measured: YFP reporter; matrix: E. coli; notes: PhoQ-PhoP variant library; together with: 10 µM Mg2+; relative to: high Mg2+ state; direction: higher = stronger signaling
Molecule: PhoQ, residues 284 288 289 292 302 303 AGCYAI
For PhoP, residues 12 14 15 18 19 TQCLL (Escherichia coli, UniProt P23836): fold induction read 3.42.
It gave 3.75 for fold induction (PhoP, residues 12 14 15 18 19 ICWRQ (Escherichia coli, UniProt P23836)).
For PhoP, residues 12 14 15 18 19 VHTVL (Escherichia coli, UniProt P23836): fold induction read 1.59.

Excerpt of the above (sample 6):
For `K8T`, “binding free energy change” read 1.27 kcal/mol.
`R38L` — result for “binding free energy change”: 0.0365 kcal/mol.
`T81M` — result for “binding free energy change”: -0.0189 kcal/mol.
Under “binding free energy change”, `D32G` is recorded as 0.28 kcal/mol.
`L49R`: “binding free energy change” 0.84 kcal/mol.
For `L84D`, “binding free energy change” read 1.02 kcal/mol.
`K8Q`: “binding free energy change” 1.04 kcal/mol.
For `P41K`, “binding free energy change” read 0.252 kcal/mol.
`S73K`: “binding free energy change” -0.0389 kcal/mol.
